Experimental data collected from several papers.
Every numbered part comes from another study and shows a few of its results, in no order.

Sample 1 — technique: RNA Bind-n-Seq; form: RNA; medium: in vitro; tested at: 365 nM; relative to: no-protein control; direction: higher = stronger binding
Target: RNA binding protein fox-1 homolog 2, RRM domain, GST-SBP tag (RBFOX2, Homo sapiens, UniProt O43251-10, residues 100-194)
Notes: natural RNA segment, single round, ends assumed
All sequences stand within: GGGAGUUCUACAGUCCGACGAUC … UGGAAUUCUCGGGUGCCAA
Target sequence (chain): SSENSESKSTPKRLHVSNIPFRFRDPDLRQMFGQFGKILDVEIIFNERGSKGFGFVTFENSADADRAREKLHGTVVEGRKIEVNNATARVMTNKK
Sequence	RBNS enrichment (R)
UGUCUGUGCAAGGCACUACAGCUAUUCACGUGGAGUUACCGCUGCAUUUUCAAAGGUCGGAGAUCUUUCUUCUGCCUGAGUUGGUCAUGUAGCAAUUUUUUCCUAAACAC	0.25
AAAUAUGCCCAGAAUAGAAAAGCUAUGUUGGGGCACAUGUCCUGCAAAUAUGGCCCUAGAAACAAGUGAUAUGGAAUUUACUUGGUGAAUAAGUUAUAAAUUCCCACAGA	0.463
GUCCCUAUAACUGGGGUUAUCUGACCAUCCAUCUCCCUUCUUUGUUCUGCUUUCUGUUCGGGGUGCCCUUCACUUAAUUGCCUUACUGGCUGGCUGACGGCAGGGGAGUG	0.834
CAGCUGCUCCUAAGGACACAGGGCUGGGUUGGUAAAGAGAAGGCUAUGGUUGACUUCUUGCUUGUGCUUCCCACUCUCCCCGACUUCAUUCACUCAAACUUCUUUAAAUG	0.529
UACUGCCCAGAAUGUUAGCAUAAAACAACACAGGAAGCUGAUAAAAAUAGCAGCUGUUGUUUCUCUUUGGAAAGUGACAGCAGAAGUUGGUGGCAUGGGACUUUUUGUCC	9.55
GGGUGGACAUUAGGGUAGGGUGAGGUCAACCUAAUACUGACUUGUCAGUAUCUCCAGCUCUGAUUACCUUUGAAGUGUUCAGAAGAGACAUUGUCUUCUACUGUUCUGCC	0.674
UGUUUGACCUUGACUCAUUCCCCAUAUGUCUUUGAGGAGGCUCACAAAAUACUAAAGCUGGGAGGAAACUUGGAGAUCUAUAGGUCAAACCUCCCCAUUGGGCUGAUGAG	0.342
GGAUGAAGCAUAGCAGGAAGACCGAGGAGGAGAGCCCUGCAGCAGCUUCCCGCCAGUUUCUCUCAGUUUGCCAAAGAGACCAUUGAAUGUUUUUGAAACCAAAGAGCACA	0.869

Sample 2 — technique: RNA Bind-n-Seq; form: RNA; medium: in vitro; tested at: not given; relative to: input RNA pool; direction: higher = stronger binding
Target: RING finger protein unkempt homolog, zinc fingers 1-6, GST-SBP tag (UNK, Homo sapiens, UniProt Q9C0B0, residues 30-357)
Chain of UniProt Q9C0B0 (30-357, looked up): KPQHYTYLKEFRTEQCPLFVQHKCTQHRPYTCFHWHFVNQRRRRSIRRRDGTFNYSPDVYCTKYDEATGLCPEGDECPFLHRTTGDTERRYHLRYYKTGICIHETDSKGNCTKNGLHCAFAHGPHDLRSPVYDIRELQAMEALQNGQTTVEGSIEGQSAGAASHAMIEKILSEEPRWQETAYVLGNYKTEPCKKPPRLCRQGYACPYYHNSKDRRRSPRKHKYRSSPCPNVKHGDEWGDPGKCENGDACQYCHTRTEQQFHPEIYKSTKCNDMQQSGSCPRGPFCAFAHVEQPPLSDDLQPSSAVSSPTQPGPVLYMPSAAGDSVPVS
Notes: RNA with constant flanks, human-mouse chimeric sites, ends assumed
All sequences stand within: GGGAGUUCUACAGUCCGACGAUC … CAACAGAGGAUUGAGCAUCA
Sequence	bound/input enrichment
UUUCUACUGCAGCAAACGAUGCUAAGAAUUAAGGAUCCUAAGAAGUCCCUGGAUUUUUAUACGAGGGUUCUUGGAAUGACGCUAAUCCAGAAGCUUGACUUCCCUGCUAUGAAGUUCUCG	0.136 ratio
UACUCAACUUUCUUGCCACAUUUUGAAUUCCAAGACAUUAUCCCUCCAGAUGACUUUCUAACGAGUGAUGAAGAGCAAGAUUUGGUUUUAUUUGGAACUAUGAGAGGACAAGUUGUUGGA	0.173 ratio
CUGUGUGUGCUGAAUAAAUGGCUUGUAAAGAAGUUUUUCCAAGCUGUAACCCAUGCUUCCCUUAGAGUUGCUGCAAAAUGUUCUUCCUGAUAUUGAUUUUAUUUGUUCUGACUCUCCCUC	0.707 ratio
UCUUAACUUAUUCAUUUAACUUAUUUUUAUAGCUAGAUAAAUAUUGUUAGUCUUAGUCAAUAGCUCACAUUUUUUGAGAAGCAUGCCCUCCCUAUCCAUUUGUCUUAUAACAUGACCCAG	12 ratio
AUUGUUGAAGCGAAUCCACUUUUAGAAGCAUUUGGAAAUGCGAAGACUGUUCGCAACAAUAAUAGCAGUCGAUUUGGAAAAUUUGUAGAAAUUCAUUUCAAUGAAAAGAGCUCAGUUGUU	0.279 ratio
GCUCUUGGGAAUGUAAUCAGCGCCUUGGGGGACAAGAGCAAGAGGGCCACCCAUGUCCCUUACAGAGACUCUAAGCUGACAAGACUCUUGCAGGAUUCCCUUGGGGGUAAUAGCCAAACC	0.187 ratio
CUGUGUGUGCUGAAUAAAUGGCUUGUAAAGAAGUUUUUCCAAGCUGUAACCCAUGCUGUUAUUAUAGUUGCUGCAAAAUGUCUCUUAUGAUAUUGAUGUUUGUUUACAACUGAAGGUCUC	0.116 ratio
CACGUGUCUGCAGUACUUGAUGUGGAUUACUCUCCCACUGGGAAGGAAUUUGUGUCUGCCAGCUUUGAUAAGUCUAUUAGAAUCUUUCCUGUAGACAAGAGCCGAAGCAGGGAAGUGUAU	0.291 ratio

Sample 3 — technique: protein binding microarray; form: double-stranded DNA, one strand shown; medium: in vitro; tested at: not given; relative to: not given; direction: higher = stronger binding
Target: Histone acetyltransferase KAT6A, winged helix 1, GST fusion (KAT6A, Homo sapiens, UniProt Q92794, residues 1-85)
Notes: 8-mer, flanks averaged, mean of 2 arrays, mostly near background
Target sequence (chain): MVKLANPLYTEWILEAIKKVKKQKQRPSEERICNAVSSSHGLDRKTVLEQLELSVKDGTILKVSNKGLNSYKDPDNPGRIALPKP
Sequence	E-score
CAATGTAA	0.0359
ACTCTAAC	-0.0977
CCAATGGA	-0.138
CATGCTTA	0.0399
AACGGCGC	0.377
AAAGAAAG	-0.219
ACTCGCGA	0.0678
ACCAGATC	-0.0958
TAGCGCAA	0.254
ATATGGGA	-0.161
AGACTTTA	-0.196
AGTGGGAA	-0.18
ACGGCTCT	0.291
GCCGCGCA	0.465
TACACCGA	-0.0278
AGTGCCAA	-0.228
CTTCCTAA	-0.253
GCAGCGTA	0.111
CGACTATC	-0.0195
AAACATAC	-0.0599
GACATGAA	-0.126
ATAAGACA	-0.184

Sample 4 — technique: universal PBM; form: double-stranded DNA, one strand shown; medium: in vitro; tested at: not given; direction: higher = stronger binding
Target: Sal-like protein 4, full length isoform B (SALL4, Homo sapiens, UniProt Q9UJQ4-2, residues 1-616)
Notes: 8-mer, flanks averaged, mean of replicates
Sequence	E-score
AAAGTGCG	-0.0815
CCCGCATC	-0.21
CGCTCTAG	-0.359
ATCTCCCA	-0.0611
ATCGTGAC	0.0269
CCATACAA	0.188
CCAAAGCA	-0.0382
AACCTCTG	-0.0632
ACTGAGCG	-0.258
GCGTCCGA	-0.369
GTTAGGTA	0.119
CCAGTCTA	-0.261
ACTATTGA	0.215
ACTAGTGC	-0.0757
ACTCCTCT	-0.0654
TAGGGTCA	-0.119
CCATCCAA	0.0262
CACAGAGC	-0.183
CGACAGAG	-0.259
CCAGCGAA	-0.223
ACTAGAAG	-0.0507
CGTTACAG	-0.151
GGCACCGA	-0.216
ACAATTCC	0.0352
CTAACTCC	-0.209

Some of these lines once more (sample 3):
Sequence	E-score
ATATGGGA	-0.161
AGACTTTA	-0.196
AGTGGGAA	-0.18
ACGGCTCT	0.291
GCCGCGCA	0.465
TACACCGA	-0.0278
AGTGCCAA	-0.228
CTTCCTAA	-0.253
GCAGCGTA	0.111
CGACTATC	-0.0195
